Measured values collected from several papers.
Protocols differ between the studies behind these lines. Numbers after ± are the reported error.

Compound	cell line	assay	conditions	EC50
CC1=C/C(=N\N=C(/S)Nc2cccnc2)CC(C)(C)C1	LDR	silenced CMV-GFP reporter derepression, qHTS		6.31 µM
C=C(NC(=O)c1csc(-c2cccnc2)n1)C(=O)NC(=C)C(=O)OC	PC3-TxR	cell growth or viability		24.2 µM
COc1nc(Nc2nc(O)c3ccccc3n2)nc2ccc(C)cc12	LDR	silenced CMV-GFP reporter derepression, qHTS		3.98 µM
CC(=O)N(C)Cc1cccc(-c2cc3c(c(C(F)(F)F)c2)CCCC3N(C)C(=O)CCOCCOCCC(=O)N(C)C2CCCc3c2cc(-c2cccc(CN(C)C(C)=O)c2)cc3C(F)(F)F)c1 (stereo not drawn)	CHO CHOP::luciferase reporter	CHOP luciferase reporter, activator	18 h	13 µM
COC(=O)[C@H](C)NC(=O)[C@H](C)NC(=O)c1csc(-c2cccnc2)n1	SQ20B	cell growth or viability		> 30 µM
O=c1c(-c2cnn(-c3ccccc3)c2)c(C(F)(F)F)oc2c(O)c(O)ccc12	NB-4	apoptosis, annexin V flow cytometry		~7 µM
Cc1ccncc1.[Cl-].[Cl-].[Ru+2].c1cc(-c2ccc3cccnc3n2)nc(-c2ccc3cccnc3n2)c1.c1ccc2cc3nc4c5cccnc5c5ncccc5c4nc3cc2c1	SK-MEL-28	cell viability	dark, normoxia 18.5 % oxygen	69.4 ± 0.6 µM
Cc1ccc(C(C)C)c(OCc2ccc(C(=O)N/N=C/c3cccc(O)c3O)cc2)c1	LDR	silenced CMV-GFP reporter derepression, qHTS		1.26 µM
CCOc1ccc(N2CC(O)(c3cccc([N+](=O)[O-])c3)[N+]3=C2CCCCC3)cc1 (stereo not drawn)	SH-SY5Y	cytoprotection, FDA/PI staining	together with: 0.8 µM p-tau	0.18 µM
CCc1ccc(-c2nc(CSCC(=O)NCCc3ccccc3)c(C)o2)cc1	HEK293T	Wnt Super-TOPFlash reporter, inhibitor	24 h	39 µM
C=C(NC(=O)c1csc(-c2ccc(NC(=O)CCCCCBr)cc2)n1)C(=O)NC(=C)C(=O)OC	SQ20B	cell growth or viability		1.2 µM
COc1ccc(-n2nc([N+](=O)[O-])/c(=N/c3cc(C)ccc3C)n2O)cc1	SH-SY5Y	cytoprotection, FDA/PI staining	together with: 0.8 µM p-tau	2.79 µM

Repeated from above:
Compound	cell line	assay	conditions	EC50
CCOc1ccc(N2CC(O)(c3cccc([N+](=O)[O-])c3)[N+]3=C2CCCCC3)cc1 (stereo not drawn)	SH-SY5Y	cytoprotection, FDA/PI staining	together with: 0.8 µM p-tau	0.18 µM
